Results from different studies.
Parts stem from different laboratories: compare values within a part only.
Sequence of UniProt P41240 (whole entry, looked up): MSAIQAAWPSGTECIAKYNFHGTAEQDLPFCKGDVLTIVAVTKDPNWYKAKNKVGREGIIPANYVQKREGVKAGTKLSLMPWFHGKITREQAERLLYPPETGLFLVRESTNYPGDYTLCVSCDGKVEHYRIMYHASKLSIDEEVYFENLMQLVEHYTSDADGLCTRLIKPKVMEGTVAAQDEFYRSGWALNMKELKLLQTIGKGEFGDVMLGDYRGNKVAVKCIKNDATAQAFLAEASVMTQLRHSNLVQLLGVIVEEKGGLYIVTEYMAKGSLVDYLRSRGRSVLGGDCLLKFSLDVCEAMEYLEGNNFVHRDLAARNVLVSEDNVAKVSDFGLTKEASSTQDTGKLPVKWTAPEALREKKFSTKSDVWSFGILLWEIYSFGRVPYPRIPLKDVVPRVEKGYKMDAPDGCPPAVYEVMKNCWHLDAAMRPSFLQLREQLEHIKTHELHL
Sequence of UniProt Q8TD08 (whole entry, looked up): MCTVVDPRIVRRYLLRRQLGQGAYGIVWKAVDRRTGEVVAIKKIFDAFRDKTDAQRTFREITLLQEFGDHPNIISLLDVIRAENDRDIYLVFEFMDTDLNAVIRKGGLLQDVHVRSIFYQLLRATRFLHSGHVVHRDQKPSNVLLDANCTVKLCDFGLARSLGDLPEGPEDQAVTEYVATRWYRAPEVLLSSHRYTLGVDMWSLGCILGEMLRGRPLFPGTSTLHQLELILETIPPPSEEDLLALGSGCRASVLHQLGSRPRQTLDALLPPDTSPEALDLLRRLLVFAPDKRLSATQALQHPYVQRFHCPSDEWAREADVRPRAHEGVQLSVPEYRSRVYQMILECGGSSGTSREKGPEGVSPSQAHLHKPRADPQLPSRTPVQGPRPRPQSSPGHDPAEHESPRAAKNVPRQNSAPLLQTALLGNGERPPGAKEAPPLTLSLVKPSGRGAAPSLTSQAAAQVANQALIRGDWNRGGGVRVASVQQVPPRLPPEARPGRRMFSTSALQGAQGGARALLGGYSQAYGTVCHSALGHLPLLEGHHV
Sequence of UniProt O15530 (whole entry, looked up): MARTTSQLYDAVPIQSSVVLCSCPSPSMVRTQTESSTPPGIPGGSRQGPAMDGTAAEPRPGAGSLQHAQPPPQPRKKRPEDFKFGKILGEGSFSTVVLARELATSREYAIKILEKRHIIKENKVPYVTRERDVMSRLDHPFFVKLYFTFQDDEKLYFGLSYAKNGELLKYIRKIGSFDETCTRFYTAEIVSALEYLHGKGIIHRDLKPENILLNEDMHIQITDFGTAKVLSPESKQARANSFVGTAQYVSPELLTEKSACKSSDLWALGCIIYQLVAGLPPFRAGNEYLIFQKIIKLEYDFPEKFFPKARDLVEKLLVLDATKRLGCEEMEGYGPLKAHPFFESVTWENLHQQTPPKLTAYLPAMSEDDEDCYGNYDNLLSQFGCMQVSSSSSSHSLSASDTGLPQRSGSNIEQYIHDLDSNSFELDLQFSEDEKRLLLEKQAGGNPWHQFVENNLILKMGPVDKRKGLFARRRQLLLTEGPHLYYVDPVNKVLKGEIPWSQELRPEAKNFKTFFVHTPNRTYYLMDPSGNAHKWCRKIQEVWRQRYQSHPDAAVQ
Sequence of UniProt P23443 (whole entry, looked up): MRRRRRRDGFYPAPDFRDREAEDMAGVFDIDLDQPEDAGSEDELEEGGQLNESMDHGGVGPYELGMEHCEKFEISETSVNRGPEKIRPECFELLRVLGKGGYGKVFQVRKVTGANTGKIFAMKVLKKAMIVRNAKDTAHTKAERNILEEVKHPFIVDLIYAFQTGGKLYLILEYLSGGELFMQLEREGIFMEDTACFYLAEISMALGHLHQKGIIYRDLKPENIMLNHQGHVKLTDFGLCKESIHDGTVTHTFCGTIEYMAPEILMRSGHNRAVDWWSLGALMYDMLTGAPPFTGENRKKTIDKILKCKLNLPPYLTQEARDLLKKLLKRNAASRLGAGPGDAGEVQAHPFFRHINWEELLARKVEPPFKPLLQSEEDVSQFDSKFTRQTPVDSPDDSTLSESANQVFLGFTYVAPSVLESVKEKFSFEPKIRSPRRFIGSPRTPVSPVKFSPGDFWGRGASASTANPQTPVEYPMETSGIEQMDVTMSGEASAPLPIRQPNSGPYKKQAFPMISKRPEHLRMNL
Sequence of UniProt P42336 (whole entry, looked up): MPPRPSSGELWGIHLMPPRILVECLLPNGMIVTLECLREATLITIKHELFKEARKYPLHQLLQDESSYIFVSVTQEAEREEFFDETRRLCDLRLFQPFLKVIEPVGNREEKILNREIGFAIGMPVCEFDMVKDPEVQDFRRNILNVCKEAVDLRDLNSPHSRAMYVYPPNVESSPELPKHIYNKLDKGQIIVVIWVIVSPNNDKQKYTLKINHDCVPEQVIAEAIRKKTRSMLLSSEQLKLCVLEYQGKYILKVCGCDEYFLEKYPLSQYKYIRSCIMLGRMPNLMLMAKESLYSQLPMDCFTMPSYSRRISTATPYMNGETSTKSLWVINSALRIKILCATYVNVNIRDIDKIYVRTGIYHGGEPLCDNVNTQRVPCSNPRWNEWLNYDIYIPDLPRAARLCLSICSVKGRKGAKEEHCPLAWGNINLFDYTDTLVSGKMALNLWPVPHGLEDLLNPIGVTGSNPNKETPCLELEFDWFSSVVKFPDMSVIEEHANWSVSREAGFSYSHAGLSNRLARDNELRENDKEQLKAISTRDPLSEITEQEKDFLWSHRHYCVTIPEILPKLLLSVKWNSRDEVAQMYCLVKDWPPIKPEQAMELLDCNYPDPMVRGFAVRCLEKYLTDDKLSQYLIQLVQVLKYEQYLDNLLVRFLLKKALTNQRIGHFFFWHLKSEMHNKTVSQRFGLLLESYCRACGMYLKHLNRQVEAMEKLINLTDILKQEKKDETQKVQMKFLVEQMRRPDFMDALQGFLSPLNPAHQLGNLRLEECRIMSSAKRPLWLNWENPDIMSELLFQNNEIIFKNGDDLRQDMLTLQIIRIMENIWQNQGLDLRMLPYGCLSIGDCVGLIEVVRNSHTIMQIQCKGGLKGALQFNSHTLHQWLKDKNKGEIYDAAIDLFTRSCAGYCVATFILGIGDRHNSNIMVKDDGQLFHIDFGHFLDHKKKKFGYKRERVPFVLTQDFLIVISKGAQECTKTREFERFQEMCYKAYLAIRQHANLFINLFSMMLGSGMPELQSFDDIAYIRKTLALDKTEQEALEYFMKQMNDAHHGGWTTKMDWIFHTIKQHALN
Sequence of UniProt Q9BXA7 (whole entry, looked up): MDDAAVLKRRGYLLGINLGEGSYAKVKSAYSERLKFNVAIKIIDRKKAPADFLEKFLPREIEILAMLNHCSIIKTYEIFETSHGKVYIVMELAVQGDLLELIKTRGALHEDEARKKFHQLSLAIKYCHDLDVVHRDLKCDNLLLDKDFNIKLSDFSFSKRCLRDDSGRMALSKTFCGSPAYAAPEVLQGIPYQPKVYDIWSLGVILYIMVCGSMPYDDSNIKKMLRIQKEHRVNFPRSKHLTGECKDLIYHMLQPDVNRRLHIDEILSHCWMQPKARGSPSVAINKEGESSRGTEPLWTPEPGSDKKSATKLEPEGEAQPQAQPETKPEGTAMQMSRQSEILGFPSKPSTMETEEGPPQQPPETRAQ
Sequence of UniProt Q16816 (whole entry, looked up): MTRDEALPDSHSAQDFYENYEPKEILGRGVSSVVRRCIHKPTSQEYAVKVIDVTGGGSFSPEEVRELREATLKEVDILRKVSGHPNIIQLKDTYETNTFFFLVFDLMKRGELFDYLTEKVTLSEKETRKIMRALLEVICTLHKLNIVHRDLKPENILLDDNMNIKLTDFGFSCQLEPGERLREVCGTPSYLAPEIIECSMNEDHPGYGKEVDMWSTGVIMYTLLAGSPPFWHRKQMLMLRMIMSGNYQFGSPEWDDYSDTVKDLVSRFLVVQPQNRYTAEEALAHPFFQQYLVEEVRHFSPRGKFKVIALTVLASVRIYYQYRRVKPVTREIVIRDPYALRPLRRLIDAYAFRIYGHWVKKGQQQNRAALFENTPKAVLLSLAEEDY

Sample 1
Target: Tyrosine-protein kinase JAK1 (JAK1, Homo sapiens, UniProt P23458)
Sequence of UniProt P23458 (whole entry, looked up): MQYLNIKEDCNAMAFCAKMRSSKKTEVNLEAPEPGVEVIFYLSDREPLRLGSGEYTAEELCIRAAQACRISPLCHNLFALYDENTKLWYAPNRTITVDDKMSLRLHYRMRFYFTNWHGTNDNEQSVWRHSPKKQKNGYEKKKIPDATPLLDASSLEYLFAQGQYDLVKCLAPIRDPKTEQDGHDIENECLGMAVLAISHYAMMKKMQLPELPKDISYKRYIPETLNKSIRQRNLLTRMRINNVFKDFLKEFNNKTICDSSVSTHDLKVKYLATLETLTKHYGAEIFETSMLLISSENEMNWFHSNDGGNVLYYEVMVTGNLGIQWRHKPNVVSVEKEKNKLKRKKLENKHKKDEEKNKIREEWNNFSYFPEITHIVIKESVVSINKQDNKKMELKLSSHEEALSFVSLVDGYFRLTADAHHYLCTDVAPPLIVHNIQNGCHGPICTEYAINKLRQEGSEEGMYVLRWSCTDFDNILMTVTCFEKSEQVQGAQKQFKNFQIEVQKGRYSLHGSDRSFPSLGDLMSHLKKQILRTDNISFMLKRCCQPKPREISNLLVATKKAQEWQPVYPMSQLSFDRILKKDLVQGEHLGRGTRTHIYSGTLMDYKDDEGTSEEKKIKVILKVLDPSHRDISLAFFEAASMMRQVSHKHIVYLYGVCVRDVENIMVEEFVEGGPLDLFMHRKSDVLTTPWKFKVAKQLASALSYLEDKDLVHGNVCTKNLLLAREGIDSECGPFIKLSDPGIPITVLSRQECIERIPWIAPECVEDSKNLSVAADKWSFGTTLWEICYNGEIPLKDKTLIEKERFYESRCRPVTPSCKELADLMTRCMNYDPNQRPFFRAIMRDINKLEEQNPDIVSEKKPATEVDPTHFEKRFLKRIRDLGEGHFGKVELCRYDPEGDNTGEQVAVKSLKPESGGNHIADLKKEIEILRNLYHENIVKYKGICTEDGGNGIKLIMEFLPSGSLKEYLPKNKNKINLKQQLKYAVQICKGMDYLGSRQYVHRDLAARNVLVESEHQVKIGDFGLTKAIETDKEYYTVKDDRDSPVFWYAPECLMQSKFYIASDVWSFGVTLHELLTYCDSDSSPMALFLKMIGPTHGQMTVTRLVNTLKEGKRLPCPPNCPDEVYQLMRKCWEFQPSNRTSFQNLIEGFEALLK
Observed: enzyme activity
Action: inhibitor
Tested at: 0.5 µM
Baseline: control
SMILES | remaining activity
CNC(=O)c1cc(Oc2ccc(NC(=O)Nc3ccc(Cl)c(C(F)(F)F)c3)cc2)ccn1 | 110%
O=S(=O)(c1cccc2cnccc12)N1CCCNCC1 | 111%
O=C(O)c1ccc2c3c1cccc3c(=O)n1c3ccccc3nc21 | 98.4%
N#CC(C#N)=C(N)/C(C#N)=C/c1ccc(O)cc1 | 99.4%
O=c1c2ccccc2[nH]c(=S)n1CCN1CCC(=C(c2ccc(F)cc2)c2ccc(F)cc2)CC1 | 105%
CC(C)[C@H](CO)Nc1nc(Nc2cc(N)cc(Cl)c2)c2ncn(C(C)C)c2n1 | 101%
Nc1[nH]nc2nc3ccccc3nc12 | 99.8%
O=C(Nc1cccc(Nc2cc(Nc3cccc(C(F)(F)F)c3)ncn2)c1)C1CC1 | 103%
Cc1ccc(NC(=O)c2ccc(CN3CCN(C)CC3)cc2)cc1Nc1nc(-c2cccnc2)cs1 | 98.8%
CCOC(=O)c1c(C)[nH]c(/C=C2\C(=O)Nc3ccccc32)c1C | 97.1%
COc1ccc(OC)c2c(=S)c3ccccc3[nH]c12 | 102%
Nc1ncnc2n[nH]c(Nc3ccc(F)cc3)c12 | 99%
OCC(O)CCON=C1C(c2c(O)[nH]c3ccccc23)=Nc2ccccc21 (stereo not shown) | 25.9%
Cn1c2ccccc2c2c3c(c4c5ccccc5n(CCC#N)c4c21)CNC3=O | 20.2%
Cc1ccc(Nc2nccc(N(C)c3ccc4c(C)n(C)nc4c3)n2)cc1S(N)(=O)=O | 104%

Sample 2
Target: RING finger protein unkempt homolog, zinc fingers 1-6, GST-SBP tag (UNK, Homo sapiens, UniProt Q9C0B0, residues 30-357)
Technique: RNA Bind-n-Seq
Molecule type: RNA
Medium: in vitro
Tested at: not given
Notes: RNA with constant flanks, human-mouse chimeric sites, ends assumed
Baseline: input RNA pool
Reading: higher = stronger binding
Residues (chain): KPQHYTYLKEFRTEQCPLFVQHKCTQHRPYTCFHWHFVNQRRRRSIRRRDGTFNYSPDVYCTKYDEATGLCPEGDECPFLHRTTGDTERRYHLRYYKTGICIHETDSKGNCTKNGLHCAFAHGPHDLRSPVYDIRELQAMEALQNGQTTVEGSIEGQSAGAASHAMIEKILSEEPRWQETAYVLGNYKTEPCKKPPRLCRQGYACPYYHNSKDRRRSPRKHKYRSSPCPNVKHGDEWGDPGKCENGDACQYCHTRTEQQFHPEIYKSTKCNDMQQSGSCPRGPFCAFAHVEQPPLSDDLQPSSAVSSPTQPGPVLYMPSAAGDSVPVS
Oligonucleotide | bound/input enrichment [ratio]
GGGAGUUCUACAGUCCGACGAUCGUAUUUGUGCGCUCCCCACUCGUGUUUUUAAGUGUAUUUUUAUAAGAUACAUGUAUUUACAAUUGAGCUUUUGUUACAUAAUGCUGAAAACAUCUCUGAGAUUAUGAAAAAUGUUUCAAUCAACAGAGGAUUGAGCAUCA | 0.111
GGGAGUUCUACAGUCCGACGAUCGUAAUGUUUAUUCAUUUAACUUAUUUUUAUAGCUAGAUAAAUAUUGUUAGUCUUAGACAAUAGCUCACAUUUUUUGAGAAGCAUGCCCUCCCUGUCCAUUUGUCUUACAAUAACACUCAGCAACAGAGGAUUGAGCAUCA | 9.16
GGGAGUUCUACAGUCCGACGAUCUUGCCUGAGAACGAGGAUGAGCUGGAGAGCACCAACAGGCGCUACACCAAGAGGGACUGCAGCACUUUCCUCAGAACUAGCGAGACGGGCAUCGUGGACCAGGUCAUGGUCACUCUCAACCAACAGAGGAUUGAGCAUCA | 0.0673
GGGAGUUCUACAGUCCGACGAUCGCUCCUCCCCGCUCUGCAGCCUGGGGACACUGGGCUGGGACCAGAAUCUUAUUUUUUUUUAAAACUCUCAGUGUAACUGUAUCCCGUUUUUUUCUUUUUUUUUUAAAUAGUGUAUUUUUUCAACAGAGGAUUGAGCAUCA | 41.3
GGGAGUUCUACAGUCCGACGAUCUCUGGUCACACUCGUGUGUAUGGUGUUUGCUUUGUGGACACUUCACUGGGCAAGUUUUUCAUCGGCCAGUUUUCAGAUGACCGCCACUGUUCCAGAUUUAGGACGCUAGUGGCACACUAUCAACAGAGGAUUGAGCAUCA | 0.19
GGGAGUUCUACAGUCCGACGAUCUCGGAUGCUGUGCUGGGUCACUUUUCAUAUCCUGAUCCUUCACAGUGGACAGAUGAAGAACUGGGAAUCCCUCCUGAUGACGAGGACUGACACUGUAAACUCUCUGGACGAGUAGGAGCACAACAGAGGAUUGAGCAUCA | 0.698
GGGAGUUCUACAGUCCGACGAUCGAUAAGAAAAGCUUGUUGGAGACCCGCUUGCACAUCACUGGUAGAGACCUGAGGUGUAAAAUAGCUGAAACUUUCGGAUUUCAAGAAAAUUACAUCAAGAUCGUAAUAAAUAAGAAACAGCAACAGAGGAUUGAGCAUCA | 0.423
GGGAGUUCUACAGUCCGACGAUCAUUGUUGAAGCGAAUCCACUUUUAGAAGCAUUUGGAAAUGCAAAGACUGUUCGCAACAAUAAUAGCAGUCGAUUUGGGAAAUUUGUAGAAAUUCAUUUCAAUGAAAAGAGUUCGGUUGUUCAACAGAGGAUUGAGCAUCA | 0.356

Sample 3
Structure (SMILES): CN(c1ccnc(CNc2nc(Nc3ccc4c(c3)CC(=O)N4)ncc2C(F)(F)F)n1)S(C)(=O)=O
Observed: cell-free assay
Technique: competition with immobilised ligand
Tested at: 1 µM
target | remaining binding [%]
Serine/threonine-protein kinase 26 (STK26, Homo sapiens, UniProt Q9P289) | 46
Testis-specific serine/threonine-protein kinase 1 (TSSK1B, Homo sapiens, UniProt Q9BXA7) | 56
Epidermal growth factor receptor (EGFR, Homo sapiens, UniProt P00533) | 74
Interleukin-1 receptor-associated kinase 4 (IRAK4, Homo sapiens, UniProt Q9NWZ3) | 50
Peripheral plasma membrane protein CASK (CASK, Homo sapiens, UniProt O14936) | 85
Mitogen-activated protein kinase 15 (MAPK15, Homo sapiens, UniProt Q8TD08) | 4.8
Cyclin-dependent kinase 8 (CDK8, Homo sapiens, UniProt P49336) | 97
Serine/threonine-protein kinase NIM1 (NIM1K, Homo sapiens, UniProt Q8IY84) | 9.5
Phosphorylase b kinase gamma catalytic chain, skeletal muscle/heart isoform (PHKG1, Homo sapiens, UniProt Q16816) | 76
Phosphatidylinositol 4,5-bisphosphate 3-kinase catalytic subunit alpha isoform (PIK3CA, Homo sapiens, UniProt P42336) | 100
3-phosphoinositide-dependent protein kinase 1 (PDPK1, Homo sapiens, UniProt O15530) | 54
Mitogen-activated protein kinase 9 (MAPK9, Homo sapiens, UniProt P45984) | 79
Serine/threonine-protein kinase SIK3 (SIK3, Homo sapiens, UniProt Q9Y2K2) | 82
Tyrosine-protein kinase CSK (CSK, Homo sapiens, UniProt P41240) | 74
Ribosomal protein S6 kinase beta-1 (RPS6KB1, Homo sapiens, UniProt P23443) | 50

Sample 4
Target: Sal-like protein 4, full length isoform B (SALL4, Homo sapiens, UniProt Q9UJQ4-2, residues 1-616)
Technique: universal PBM
Molecule type: double-stranded DNA, one strand shown
Medium: in vitro
Tested at: not given
Notes: 8-mer, flanks averaged, mean of replicates
Reading: higher = stronger binding
Residues (chain): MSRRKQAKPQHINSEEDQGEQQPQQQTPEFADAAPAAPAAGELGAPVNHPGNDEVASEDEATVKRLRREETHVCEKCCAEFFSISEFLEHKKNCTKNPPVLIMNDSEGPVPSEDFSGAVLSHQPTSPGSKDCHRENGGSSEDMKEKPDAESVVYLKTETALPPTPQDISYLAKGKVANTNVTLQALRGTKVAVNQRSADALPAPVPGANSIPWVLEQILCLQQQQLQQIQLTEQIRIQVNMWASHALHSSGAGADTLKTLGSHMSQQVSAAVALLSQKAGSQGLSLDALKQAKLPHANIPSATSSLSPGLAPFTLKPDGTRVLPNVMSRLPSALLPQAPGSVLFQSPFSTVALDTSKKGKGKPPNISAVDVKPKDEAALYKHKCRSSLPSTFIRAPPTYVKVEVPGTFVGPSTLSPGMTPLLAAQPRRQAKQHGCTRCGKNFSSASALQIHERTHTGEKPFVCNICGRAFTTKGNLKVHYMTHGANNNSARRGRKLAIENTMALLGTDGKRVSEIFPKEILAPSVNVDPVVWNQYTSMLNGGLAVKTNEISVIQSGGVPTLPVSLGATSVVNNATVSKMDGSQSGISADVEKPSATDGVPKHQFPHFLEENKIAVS
Oligonucleotide | E-score
CATCATGC | 0.0745
AATCGTCT | 0.0396
AACACCAC | 0.00328
CCGGCAAG | -0.265
ATCGGTCA | -0.062
AGGTTGGG | -0.165
AATTCGCT | 0.0942
AACTGTAA | 0.328

Excerpt of the above (sample 1):
SMILES | remaining activity
OCC(O)CCON=C1C(c2c(O)[nH]c3ccccc23)=Nc2ccccc21 (stereo not shown) | 25.9%
Cc1ccc(NC(=O)c2ccc(CN3CCN(C)CC3)cc2)cc1Nc1nc(-c2cccnc2)cs1 | 98.8%
Cc1ccc(Nc2nccc(N(C)c3ccc4c(C)n(C)nc4c3)n2)cc1S(N)(=O)=O | 104%
O=S(=O)(c1cccc2cnccc12)N1CCCNCC1 | 111%
